Experimental data of several laboratories.
Every numbered part comes from another study and shows a few of its results, in no order. Substitutions count along the parent as printed.

Series 1 — target: CCNB3, cyclin fold, Cln2 fusion (human); technique: yeast growth competition, sequencing; matrix: yeast; notes: strong parent motif; relative to: not given; reading: higher = stronger binding; quantity: normalised enrichment score
Starting sequence: RBL2 docking peptide (human); STTRRRLFVENDS; partner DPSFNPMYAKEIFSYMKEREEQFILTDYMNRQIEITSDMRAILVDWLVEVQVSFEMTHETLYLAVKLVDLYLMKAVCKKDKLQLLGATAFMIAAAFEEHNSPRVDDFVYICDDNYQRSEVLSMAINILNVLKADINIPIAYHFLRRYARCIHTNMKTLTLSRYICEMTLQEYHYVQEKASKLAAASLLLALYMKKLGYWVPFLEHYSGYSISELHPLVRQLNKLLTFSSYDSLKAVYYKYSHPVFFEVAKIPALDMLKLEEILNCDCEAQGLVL
STTRRRLFAENDS [V9A]: 1.07
STTRRRLPVENDS [F8P]: 0.513
STTRRCLFVENDS [R6C]: 0.51
STTRRHLFVENDS [R6H]: -0.164
STTRRRLFVENFS [D12F]: 0.729
STTRRRLFVERDS [N11R]: 0.49
STTRRRLFVENGS [D12G]: 0.679
HTTRRRLFVENDS [S1H]: 1.26
STTRRRLFVECDS [N11C]: 1.15
STTRRRLFVENDY [S13Y]: 0.863
STTRRRLFVEADS [N11A]: 0.51
STRRRRLFVENDS [T3R]: -0.0304
SCTRRRLFVENDS [T2C]: 0.566

Series 2 — technique: RNA Bind-n-Seq; molecule type: RNA; matrix: in vitro; tested at: 200 nM; notes: whole 134-nt RNA, ends assumed; added: 150 mM LiCl; relative to: input library; reading: higher = stronger binding; quantity: log2 enrichment; each molecule: 7-deaza-guanosine replaces G
Target: Ras GTPase-activating protein-binding protein 1, full length (G3BP1, Homo sapiens, UniProt Q13283)
Sequence of UniProt Q13283 (whole entry, looked up): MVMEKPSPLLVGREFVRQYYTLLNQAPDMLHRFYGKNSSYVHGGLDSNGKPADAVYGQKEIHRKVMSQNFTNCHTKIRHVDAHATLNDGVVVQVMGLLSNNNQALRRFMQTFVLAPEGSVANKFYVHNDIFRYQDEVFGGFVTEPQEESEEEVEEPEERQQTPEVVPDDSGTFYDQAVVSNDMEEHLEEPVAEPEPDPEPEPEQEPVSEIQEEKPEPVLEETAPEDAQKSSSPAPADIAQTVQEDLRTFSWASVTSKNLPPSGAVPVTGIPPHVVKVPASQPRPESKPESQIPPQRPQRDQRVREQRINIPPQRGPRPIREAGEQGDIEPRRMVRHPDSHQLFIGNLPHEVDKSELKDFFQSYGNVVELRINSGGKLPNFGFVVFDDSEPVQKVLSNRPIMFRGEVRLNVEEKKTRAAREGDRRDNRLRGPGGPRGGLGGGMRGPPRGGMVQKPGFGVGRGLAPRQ
All sequences stand within: GGGAGUUCUACAGUCCGACGAUC … UGGAAUUCUCGGGUGUCAAGG
AGUCCUGUGCUACACAUCGUAUGUACCGAAUCGGGGAGGGGAGGGGAAAAAAAGGGGAAAGUAUUAUGUUACGCCGUUCGGAUCUGCACU: 0.738
AAGUCCUGUGCUACACAUCGUAUGUACCGAAUCGGGUUUUUGGGAGGGAAAAAGGGAAAGUAUUAUGUUACGCCGUUCGGAUCUGCACUU: 0.0959
GCAGGAAGUAAAAACAAAUGGAAAUGCUUCGGAUAGUGGCAUGGGUGGGGGUUGCUAAGGAAAGGGUGGGAUGGGAGUGGGUAAAGAGUU: -0.14
UGGCCCUGGUGGCAUGCGGGGAGGAAGAGGUGGCCUCAUGGAUCGUGGUGGUCCCGGUGGAAUGUUCAAAGGUGGCCGUGGUGGAGACAG: -0.146
CCUGUGCUACACAUCGUAUGUACCGAAUCGGGGAAAAAAGGGAAAAAAGGGGAAAAAAGGAAAGUAUUAUGUUACGCCGUUCGGAUCUGC: 0.682
CUCAAGUCCUGUGCUACACAUCGUAUGUACCGAAUCGGUGGAAAAAAAGGAGGAAAGUAUUAUGUUACGCCGUUCGGAUCUGCACUUCCA: 0.09
CUGUGCUACACAUCGUAUGUACCGAAUCGGGCCCCCCCGGGGCCCCCCCGGCCCCCCCGGGAAAGUAUUAUGUUACGCCGUUCGGAUCUG: -0.643

Series 3 — technique: protein binding microarray; molecule type: double-stranded DNA, one strand shown; matrix: in vitro; tested at: not given; relative to: not given; reading: higher = stronger binding; quantity: E-score
Target: Histone acetyltransferase KAT6A, winged helix 1, GST fusion (KAT6A, Homo sapiens, UniProt Q92794, residues 1-85)
Notes: 8-mer, flanks averaged, mean of 2 arrays, mostly near background
Target sequence (chain): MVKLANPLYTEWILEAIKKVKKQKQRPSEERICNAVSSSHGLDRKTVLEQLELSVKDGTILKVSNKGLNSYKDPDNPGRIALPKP
GCACTAGA: 0.0562
CCCCCCCG: 0.078
TACGCAAA: -0.0797
CCGTTGCA: 0.153
GGTAGCAA: -0.23
GGTATTCA: -0.0856
AGCTCTGC: -0.187
AGCGCGGG: 0.408
AGCCGCTG: 0.262
AGACCAAC: -0.315
GAGAAGGA: -0.139
GGTGGAGA: -0.073
GACCAGCA: -0.111
CGGTCGGA: 0.161

Series 4 — technique: competition protein-binding microarray; molecule type: double-stranded DNA, one strand shown; matrix: in vitro; tested at: 2 µM; added: Cbf1 competitor, 0.05 µM; reading: higher = stronger binding; quantity: fluorescence intensity; all sequences stand within: … GTCTTGATTCGCTTGACGCTGCTG
Target: Phosphate system positive regulatory protein PHO4, full length, GST-tagged (PHO4, Saccharomyces cerevisiae, UniProt P07270, residues 1-312)
Notes: whole 60-bp probe, lowest competitor level
Residues (chain): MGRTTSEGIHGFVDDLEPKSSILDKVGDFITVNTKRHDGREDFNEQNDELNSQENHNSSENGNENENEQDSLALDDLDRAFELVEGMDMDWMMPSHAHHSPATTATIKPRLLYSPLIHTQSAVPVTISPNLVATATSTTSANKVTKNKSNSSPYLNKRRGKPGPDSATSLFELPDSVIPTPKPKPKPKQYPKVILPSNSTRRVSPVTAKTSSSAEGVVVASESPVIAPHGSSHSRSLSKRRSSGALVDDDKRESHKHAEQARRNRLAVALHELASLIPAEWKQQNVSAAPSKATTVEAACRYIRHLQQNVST
CGTCCTAGTGATTGGAGCGTGGGTGCCATGAGGAAG: 8940 a.u.
ACTTGTCCAGAAAGGAACGTGACTCGCAATTGGAAG: 14000 a.u.
ATATGTGTCCGTAACCTCGTAGTTAGTGGCTGATTT: 3680 a.u.
CGCTACCAACTGCGCCATGTGCCCTAAAACGCGTAC: 11300 a.u.
AAGTTCATATATTTGCACGTGCTGTTAGCTCTTTTC: 16400 a.u.
CCCATCATATTAACGATCGTGCCAGCCGGATTGAAC: 7760 a.u.
CTTCAGATGTCAGACAACGTGCAAAATCTTTTTTTC: 13200 a.u.
TCGATGGCCATGTTACACATGGACATAAGTGCTTCC: 5540 a.u.
TGCGCAACAACTTGATGAGTGGGTGTATGTCTAGAA: 5050 a.u.
CTAACGAAGGTTTGACCCGTGGGTGACAAGCCAAGT: 10300 a.u.

Series 5 — technique: RNA Bind-n-Seq; molecule type: RNA; matrix: in vitro; tested at: 365 nM; relative to: no-protein control; reading: higher = stronger binding; quantity: RBNS enrichment (R)
Target: RNA binding protein fox-1 homolog 2, RRM domain, GST-SBP tag (RBFOX2, Homo sapiens, UniProt O43251-10, residues 100-194)
Notes: natural RNA segment, single round, ends assumed
All sequences stand within: GGGAGUUCUACAGUCCGACGAUC … UGGAAUUCUCGGGUGCCAA
Construct (chain): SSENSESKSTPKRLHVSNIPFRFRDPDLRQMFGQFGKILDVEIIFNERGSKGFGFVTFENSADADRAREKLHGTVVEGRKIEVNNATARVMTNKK
CAUUACUCACCUGGCACAGACGGCCUAAAUGCAAUCCCCAGCACAAAAAGAGACUGCCUACAAAUUGUUCCUCUAGAUCAUCGGGGCAGAGGUGCUGUCUAUAAAGCCCC: 0.321
UCAGUGCUCUCUAUUGAUGUUCUUGCUGGUCUCCAGACACAUUCCUGUUGCAUUAAGACUUGAAAGACUUGUAGAUGUGUGAUGUUCAGGCACAGGAUGCUGAAAGCUAU: 1.4
CUGAGUGAAGGAAGGGGAGCAAGGGGUGGUGCCCCUGGUCCCAGCAUGCCCCGCGCCUGAGACUGGCUGGAAAUGCUCUGACUCCUGUGAAGGCACAGCCAGCGUUGUGG: 21.8
AUCCUUCAGAAUUACUUGUAGGAUAUUCCUCUCUUCAUGUUCUAAUAAACUUCUACAUCAUCAUCAAUGGCCUUGUUGCUGCUGAACACAAUGGGGAAGUGUUUGCUGAG: 0.377
GAAAUGUGGCAGCCCAUUCCAGCACACAGGCUUCUGCAGCAAUCUCUGAGGGUAAAGCCGGUGGGAGGCUCAGCAGGCCAGGAGGCCCAAGGACAGGACUUGCGACCUUG: 0.882
CCAUCCUUGUGGAUGUGAAGUGGUAACUCAUUGUGGCUUUGAUUUACAUUUCCUUGAUAGCUAAUGAUGAGCAUUUUUCAUGUGCUUAUGGGCCGUUUAUAUACCUUUGG: 0.627
AUGUGCUCGGUGUUCAGUGGUGUAUAUUUCUUCUCCCAGACAUGGGGCGUGUGCCCCAAGGGGUCUGAUCCCCUCCUUAGUCUUAGCUCAUGGGGCGGCUCAUGAGGAGC: 0.533

Series 6 — technique: universal PBM; molecule type: double-stranded DNA, one strand shown; matrix: in vitro; tested at: 600 nM; reading: higher = stronger binding; quantity: E-score
Target: Sal-like protein 4, full length isoform A (SALL4, Homo sapiens, UniProt Q9UJQ4, residues 1-1053)
Sequence of UniProt Q9UJQ4 (whole entry, looked up): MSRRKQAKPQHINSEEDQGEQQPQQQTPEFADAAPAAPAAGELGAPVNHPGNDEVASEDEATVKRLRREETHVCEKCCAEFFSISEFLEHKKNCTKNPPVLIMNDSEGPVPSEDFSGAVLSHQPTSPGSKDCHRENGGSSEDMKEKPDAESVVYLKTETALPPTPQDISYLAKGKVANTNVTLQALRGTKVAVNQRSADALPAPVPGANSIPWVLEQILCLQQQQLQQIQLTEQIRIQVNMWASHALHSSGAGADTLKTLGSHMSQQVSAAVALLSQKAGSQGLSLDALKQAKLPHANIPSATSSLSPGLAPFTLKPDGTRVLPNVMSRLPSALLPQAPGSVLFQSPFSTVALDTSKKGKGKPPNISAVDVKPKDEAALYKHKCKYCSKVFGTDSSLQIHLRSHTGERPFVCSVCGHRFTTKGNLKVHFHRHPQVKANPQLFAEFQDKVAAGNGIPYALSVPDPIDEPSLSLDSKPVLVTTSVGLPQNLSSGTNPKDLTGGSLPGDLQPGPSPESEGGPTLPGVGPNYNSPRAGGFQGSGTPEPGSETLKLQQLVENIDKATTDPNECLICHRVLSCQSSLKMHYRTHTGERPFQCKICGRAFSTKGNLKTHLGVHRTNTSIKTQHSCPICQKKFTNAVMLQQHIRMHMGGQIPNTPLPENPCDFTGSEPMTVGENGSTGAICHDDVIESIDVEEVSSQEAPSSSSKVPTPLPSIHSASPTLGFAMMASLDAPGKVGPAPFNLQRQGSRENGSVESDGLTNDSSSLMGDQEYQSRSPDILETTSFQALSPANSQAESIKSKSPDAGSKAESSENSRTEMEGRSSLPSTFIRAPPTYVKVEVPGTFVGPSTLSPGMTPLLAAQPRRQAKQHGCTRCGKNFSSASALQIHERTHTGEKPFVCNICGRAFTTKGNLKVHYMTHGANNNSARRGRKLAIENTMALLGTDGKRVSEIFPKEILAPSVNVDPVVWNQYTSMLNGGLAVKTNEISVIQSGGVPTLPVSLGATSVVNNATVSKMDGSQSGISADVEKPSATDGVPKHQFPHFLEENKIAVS
Notes: 8-mer, flanks averaged, mean of replicates
CATTTTTA: 0.247
CGTAGATA: 0.14
AGCACTAA: 0.109
CGACGATC: -0.0728
AAATAACT: 0.321
ATAAGCAT: 0.239
GCAGGGTA: -0.0262
CCCCCACA: -0.128
ACATCTAA: 0.225
AGTTACAA: 0.162
CATCCTGC: -0.014
GGGTGTTA: 0.0298
TCAAGACA: 0.02
ACCCGAAC: -0.0935
ATGACTGA: 0.145
CAGTGCCA: -0.228

Series 7 — target: BIRC6 UBC core domain (UniProt Q9NR09); technique: yeast two-hybrid; matrix: yeast; notes: mostly zero background; relative to: not given; reading: higher = stronger interaction; quantity: lacZ reporter activity
B1: TRIM13 RING domain (UniProt O60858); chain MELLEEDLTCPICCSLFDDPRVLPCSHNFCKKCLEGILEGSVRNSLWRPAPFKCPTCRKETSATGINS
B2: TRAF5 RING domain (UniProt O00463); chain FVERLEERYKCAFCHSVLHNPHQTGCGHRFCQHCILSLRELNTVPICPVDKEVIKSQEVFK
B3: RNF208 RING domain (UniProt Q9H0X6); chain SSAAAGEPLECPTCGHSYNVTQRRPRVLSCLHSVCEQCLQILYESCPKYKFISCPTCRRETVLFTDYG
B4: TRIM5 RING domain (UniProt Q9C035); chain LREVKLSPEGQKVDHCARHGEKLLLFCQEDGKVICWLCERSQEHRGHHTFLTEEVAREYQVKL
B5: RNF38 RING domain (UniProt Q9H0F5); chain PNNHQSEQTLCVVCMCDFESRQLLRVLPCNHEFHAKCVDKWLKANRTCPICRADASEVHRDS
B6: TRIM4 RING domain (UniProt Q9C037); chain EAEDIQEELTCPICLDYFQDPVSIECGHNFCRGCLHRNWAPGGGPFPCPECRHPSAPAALRP
B7: TRIM24 RING domain (UniProt O15164); chain EAARLNLLDTCAVCHQNIQSRAPKLLPCLHSFCQRCLPAPQRYLMLPAPMLGSAETPPPVPAPGSPVSGSSPFATQVGVIRCPVCSQECAERHII
Residues (chain): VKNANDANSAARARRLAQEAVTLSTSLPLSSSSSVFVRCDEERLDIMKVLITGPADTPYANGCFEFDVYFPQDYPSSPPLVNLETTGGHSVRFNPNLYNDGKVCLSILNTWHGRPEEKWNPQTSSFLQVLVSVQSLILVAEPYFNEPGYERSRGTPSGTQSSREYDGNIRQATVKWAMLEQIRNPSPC
VEPSEENSKDCVVCQNGTVNWVLLPCRHTCLCDGCVKYFQQCPMCRQFVQESFALC (CGRRF1 RING domain (UniProt Q99675)): 0
DHGAVGQEMCCPICCSEYVKGEVATELPCHHYFHKPCVSIWLQKSGTCPVCRCMFPPPL (PJA1 RING domain (UniProt Q8NG27)): 0
B1 (TRIM13 RING domain): 0
B2 (TRAF5 RING domain): 0
B3 (RNF208 RING domain): 0
B4 (TRIM5 RING domain): 0
B5 (RNF38 RING domain): 0
B6 (TRIM4 RING domain): 0
ASLPTSEEDLCPICYAHPISAVFQPCGHKSCKACINQHLMNNKDCFFCKTTIVSVEDWE (RNF123 RING domain (UniProt Q5XPI4)): 0
B7 (TRIM24 RING domain): 0

Excerpt of the above (series 6):
AGCACTAA: 0.109
ACCCGAAC: -0.0935
ACATCTAA: 0.225
CATCCTGC: -0.014
CGTAGATA: 0.14
CATTTTTA: 0.247
TCAAGACA: 0.02
GCAGGGTA: -0.0262
